Measured values gathered from unrelated publications.
Compare with care: the assays were run in different laboratories. Several values in a cell are separate wells, animals, samples, runs or records. ± marks the error that the study gave.

CCCO[C@H]1[C@H](O)[C@@H](N)[C@@H](O[C@H]2[C@H](O[C@@H]3O[C@H](CO)[C@@H](O[C@H]4O[C@@H](CN)[C@@H](O)[C@H](O)[C@H]4N)[C@H]3O)[C@@H](O)[C@H](N)C[C@@H]2N)O[C@@H]1CO — 25% lethal concentration (NIH 3T3; 72 h, 10% fetal bovine serum): > 1200 µM
CNC(=O)C[C@H](Cc1ccncc1)NC(=O)[C@@H](Cc1cccc(Br)c1)NC(=O)[C@@H](N)Cc1cccc(F)c1 — viability (Huh-7-ACE2; CellTiter-Glo; 0.000381 µM, 48 h, unit not given; relative to: DMSO): 0.962 and 0.899 and 1.03
Brc1ccc(CCNC2CCCc3c2[nH]c2ccc(C4CCCCC4)cc32)cc1 (stereo not shown) — non-viable cells (A549; 50 µM, 23 h): 84.8 ± 10.9%
NCCCC[C@@H](CC(N)=O)NC(=O)C[C@H](Cc1ccccc1)NC(=O)[C@H]1CCCC[C@@H]1NC(=O)C[C@H](CCCCN)NC(=O)C[C@H](Cc1ccccc1)NC(=O)[C@H]1CCCC[C@@H]1NC(=O)C[C@H](CCCCN)NC(=O)C[C@H](Cc1ccccc1)NC(=O)[C@H]1CCCC[C@@H]1N — hemolysis (human red blood cells; antifungal MIC, 1 h, pH 7.5; relative to: melittin): 36.3 ± 5.97%
C#Cc1ccc(C[C@@H]2NC(=O)CSCCNC(=O)[C@H](Cc3ccccc3)N(C)C(=O)[C@H](CC(C)C)NC(=O)[C@H](CCC3CCCCC3)NC(=O)[C@H](CC(C)C)NC(=O)[C@H](C(C)C)NC(=O)[C@]3(C)CCCN3C(=O)[C@H](C(C)C)NC2=O)cc1 — Papp A→B (LLC-PK1; Caco-2): 0.02 ×10⁻⁶ cm/s
CCOc1ccc(CN2CC[C@H]2C(=O)NC)cc1-c1cccc(C(=O)NC[C@@H]2COC(C)(C)O2)c1 — viability (Huh-7-ACE2; CellTiter-Glo; 0.781 µM, 48 h, unit not given; relative to: DMSO): 0.997 and 1.04 and 0.868
C/C=C(/C)C(=O)OC[C@H]1[C@@H](Cc2ccc(C(C)(C)C)cc2)CO[C@@H]1c1ccc(OC)c(OC)c1 — LDH release (rat aortic VSMCs; 30 µM, 24.5 h): 16.3 ± 7.4%
Cc1cc(-c2ccc3ccccc3c2)nnc1NCCN1CCN(C)CC1 — recovery (Caco-2; Caco-2 permeability; apical to basolateral; 5 µM, 0.5 h, with: valspodar 1.0 µM): 53%
CNC(=O)C[C@H](Cc1ccc(F)cc1)NC(=O)[C@@H](Cc1ccc(Cl)cc1Cl)NC(=O)[C@H](N)Cc1ccccc1C#N — viability (Huh-7-ACE2; CellTiter-Glo; 0.000763 µM, 48 h, unit not given; relative to: DMSO): 0.941 and 1.07 and 0.955
CC(C)C[C@@H]1NC(=O)[C@H](CCC2CCCCC2)NC(=O)[C@H](CC(C)C)NC(=O)[C@H](C(C)C)NC(=O)[C@]2(C)CCCN2C(=O)[C@H](C(C)C)NC(=O)[C@H](Cc2ccccc2)NC(=O)CSCCNC(=O)[C@H](C(C)(C)O)NC1=O — Papp A→B (LLC-PK1; Caco-2): 0.19 ×10⁻⁶ cm/s
CN1CCN(S(=O)(=O)c2ccc(-c3ccc4ncnc(Nc5ccc(Cl)cc5)c4c3)cc2)CC1 — TC50 (NIH 3T3; PrestoBlue; 96 h): 29 µM
CNC(=O)CC[C@H](Cc1ccccc1)NC(=O)[C@@H](Cc1ccc(Cl)cc1Cl)NC(=O)[C@H](N)Cc1ccccc1[N+](=O)[O-] — viability (Huh-7-ACE2; CellTiter-Glo; 0.0244 µM, 48 h, unit not given; relative to: DMSO): 0.976 and 0.967 and 1.04
CC(C)C[C@H](NC(=O)[C@H](CCCNC(=N)N)NC(=O)[C@@H](N)Cc1c[nH]c2ccccc12)C(=O)N[C@@H](Cc1c[nH]c2ccccc12)C(=O)N[C@@H](Cc1c[nH]c2ccccc12)C(=O)N[C@@H](Cc1c[nH]c2ccccc12)C(=O)N[C@@H](CCCNC(=N)N)C(=O)N[C@@H](CCCNC(=N)N)C(=O)N[C@@H](Cc1c[nH]c2ccccc12)C(=O)O — lowest hemolytic concentration (human red blood cells; 1 h, 37 °C, 10% hemolysis): > 256 µg/mL

A few entries again:
CNC(=O)C[C@H](Cc1ccncc1)NC(=O)[C@@H](Cc1cccc(Br)c1)NC(=O)[C@@H](N)Cc1cccc(F)c1 — viability (Huh-7-ACE2; CellTiter-Glo; 0.000381 µM, 48 h, unit not given; relative to: DMSO): 0.962 and 0.899 and 1.03
